Experimental data of several laboratories.
Lines come from different studies, so protocols differ. ± gives the spread as reported. ≈ marks a conversion by molar mass, not a printed value.

CC(C)C[C@@H]1NC(=O)[C@H](CCCCN)NC(=O)[C@H](C(C)C)NC(=O)[C@H](CCCCN)NC(=O)[C@H](CC(C)C)NC(=O)[C@@H]2CCCN2C(=O)[C@@H](Cc2ccc(O)cc2)NC(=O)[C@H](C(C)C)NC(=O)[C@H](CCCCN)NC(=O)[C@H](CCCCN)NC(=O)[C@H](C(C)C)NC(=O)[C@@H]2CCCN2C(=O)[C@@H](Cc2ccc(O)cc2)NC1=O
MIC geometric mean (Gram-negative bacteria; 24 h, 7 strains): 29 µg/mL (≈ 18.6 µM)

C=CCc1ccc(OCC(=C)C)c(OC)c1
antifeedant index (Spodoptera frugiperda; larvae; 100 µg/mL; reference: untreated control): 41.1%

CC(=O)O[C@@H]1C[C@@H](C)O[C@H]2O[C@@H]3C[C@@H]4CC[C@@H]5[C@H](CC[C@]6(C)[C@@H](C7=CC(=O)OC7)CC[C@]56O)[C@@]4(C)C[C@H]3O[C@]21O
worm number (Schistosoma mansoni; mouse, chronic infection; oral, 10 mg/kg single dose, females): 7 ± 1.4

CC[C@H](C)[C@H](NC(=O)[C@H](CCCCN)NC(=O)[C@H](CCCCN)NC(=O)[C@H](CC(C)C)NC(=O)[C@H](CCCCN)NC(=O)[C@H](CCC(=O)O)NC(=O)[C@H](CCCCN)NC(=O)[C@@H](NC(=O)[C@H](CCCCN)NC(=O)[C@H](CC(N)=O)NC(=O)[C@H](CCCNC(=N)N)NC(=O)[C@H](Cc1ccccc1)NC(=O)[C@H](CCCCN)NC(=O)[C@H](CCCNC(=N)N)NC(=O)[C@H](CC(C)C)NC(=O)[C@H](CCCNC(=N)N)NC(=O)[C@H](CCCCN)NC(=O)[C@H](CCCNC(=N)N)NC(=O)[C@H](CC(C)C)NC(=O)[C@@H](N)CC(C)C)[C@@H](C)CC)C(=O)NCC(=O)N[C@@H](CCC(N)=O)C(=O)N[C@@H](CCCCN)C(=O)N[C@H](C(=O)N[C@@H](CCC(N)=O)C(=O)NCC(=O)N[C@@H](Cc1ccccc1)C(=O)N[C@H](C(=O)N1CCC[C@H]1C(=O)N[C@@H](CCCCN)C(=O)N[C@@H](CC(C)C)C(=O)N[C@H](C(=O)N1CCC[C@H]1C(=O)N[C@@H](CCCNC(=N)N)C(=O)N[C@H](C(=O)N[C@@H](CCC(=O)O)C(=O)N[C@@H](CO)C(=O)O)[C@@H](C)O)C(C)C)C(C)C)[C@@H](C)CC
lethal concentration (Streptococcus salivarius; inhibition zone; ATCC 1.2498; LB agar, overnight): 2.79 µM

CC1(C)CC[C@]2(CO)CC[C@]3(C)C(=CC[C@@H]4[C@@]5(C)CCCNC(C)(C)[C@@H]5CC[C@]43C)[C@@H]2C1
selectivity index (Human alphaherpesvirus 1; HFF, E-377; reference: CC50 over EC50): < 2

N=C(N)NCCC[C@@H]1NC(=O)[C@H](CCCCNC(=O)CCOCCOCCOCCOCCNC(=O)CC[C@H](NC(=O)CCOCCOCCOCCOCCNC(=O)CC[C@H](NC(=O)CN2CCN(CC(=O)O)CCN(CC(=O)O)CCN(CC(=O)O)CC2)C(=O)NCCOCCOCCOCCOCCC(=O)N[C@@H](CCC(=O)NCCOCCOCCOCCOCCC(=O)NCCCC[C@@H]2NC(=O)[C@@H](Cc3ccccc3)NC(=O)[C@H](CC(=O)O)NC(=O)CNC(=O)[C@H](CCCNC(=N)N)NC2=O)C(=O)NCCOCCOCCOCCOCCC(=O)NCCCC[C@@H]2NC(=O)[C@@H](Cc3ccccc3)NC(=O)[C@H](CC(=O)O)NC(=O)CNC(=O)[C@H](CCCNC(=N)N)NC2=O)C(=O)NCCOCCOCCOCCOCCC(=O)NCCCC[C@@H]2NC(=O)[C@@H](Cc3ccccc3)NC(=O)[C@H](CC(=O)O)NC(=O)CNC(=O)[C@H](CCCNC(=N)N)NC2=O)NC(=O)[C@@H](Cc2ccccc2)NC(=O)[C@H](CC(=O)O)NC(=O)CNC1=O [indium-111 labelled]
tumour to tissue ratio (athymic nude mice, female, U-87 MG glioma xenograft, tumour and liver; intravenous, 1 h; reference: tumour over liver): 2.79 ± 0.73

Cc1cc(N2CCC(C#N)(C3(C)CC3)C2=O)cc(C(=O)NCc2cc(F)cc(-c3cnn(C)c3)c2)n1 (racemic)
minimum inoculum for resistance (Plasmodium falciparum; with: selection pressure 3 × IC50): 800000 parasites

CCCCCCCC(=O)N[C@@H](CCCCN)C(=O)N[C@H](C(=O)N[C@@H](C)C(=O)NCC(=O)N[C@@H](CCCCN)C(=O)N[C@H](C(=O)N[C@@H](C)C(=O)N[C@@H](CCCCN)C(=O)N[C@H](C(=O)N[C@@H](C)C(=O)NCC(=O)N[C@@H](CCCCN)C(=O)N[C@H](C(=O)N[C@@H](C)C(=O)N[C@@H](CCCCN)C(=O)N[C@H](C(=O)N[C@@H](C)C(=O)NCC(=O)N[C@@H](CCCCN)C(=O)N[C@H](C(=O)N[C@@H](C)C(N)=O)[C@@H](C)CC)[C@@H](C)CC)[C@@H](C)CC)[C@@H](C)CC)[C@@H](C)CC)[C@@H](C)CC
MIC ratio (Staphylococcus aureus, Escherichia coli; reference: S. aureus over E. coli): 4

CCCCCCCCC(=O)NCc1ccc(O)c(OC)c1
IC50 (mAb 4-AT4; antibody binding, indirect competitive ELISA; with: coating antigen hapten 4-OVA): 4.37 ng/mL (≈ 0.0149 µM)

CCn1c2ccccc2c2cc(/C=N/NC(=O)Cn3ccc(=O)c4ccccc43)ccc21
inhibition (Bipolaris maydis; microbial growth; 50 µg/mL): 15.6%

CSCC[C@H](NC(=O)[C@H](CC(C)C)NC(=O)[C@H](Cc1c[nH]cn1)NC(=O)CNC(=O)[C@@H](NC(=O)[C@H](C)NC(=O)[C@H](Cc1c[nH]c2ccccc12)NC(=O)[C@H](CCC(N)=O)NC(=O)CCCCCNC(=O)CNC(=O)CNC(=O)CNC(=O)CSC(C)=O)C(C)C)C(N)=O [technetium-99m labelled]
tissue uptake (nude mouse, PC-3 xenograft, stomach; 90 min, with: excess unlabelled conjugate): 0.31 ± 0.06 %ID/g

CN[C@@H]1[C@H](O)[C@H](NC)[C@H]2O[C@]3(O)[C@H](O[C@@H]2[C@H]1O)O[C@H](C)C[C@@]3(O)CNCc1ccc(F)cc1
survival (Streptococcus pneumoniae; TIGR4, mice, intranasal challenge; 5 mg/kg, from 18 h post infection): 80%

COC(=O)C1=CO[C@@H](O)[C@@H]2C(Cn3cc(CN4C(=O)c5ccccc5C4=O)nn3)=CC[C@H]12
viability (SK-N-SH; neuroprotection, MTT; 0.3 µM, 24 h, with: 250 µM H2O2): 75.5 ± 0.1%

C=CCc1ccc(OCC=C(C)C)c(OC)c1
LD50 (Spodoptera frugiperda; topical, larvae): < 1000 mg/kg

COC(=O)C1=CO[C@@H](C)[C@@H]2Cn3ccc4c5ccccc5nc-4c3C[C@H]12
activity fold increase (Plasmodium falciparum; parasite growth, [3H]-hypoxanthine incorporation; Dd2 multidrug-resistant; concentration not given; reference: Dd2 over 3D7): 4 to 8 fold

CC(=O)C1=C(O)C=C2Oc3c(C(C)=O)c(O)c(C)c(O)c3[C@]2(C)C1=O
MIC99 (Candida tropicalis; broth microdilution; ATCC 750 fluconazole and amphotericin B resistant; 24 and 48 h): 4.54 µM (≈ 1.56 µg/mL)

CC[C@H](C)[C@H](N)C(=O)NCC(=O)NCC(=O)N[C@@H](CCCCN)C(=O)N[C@@H](CC(N)=O)C(=O)NCC(=O)NCC(=O)N[C@@H](Cc1c[nH]c2ccccc12)C(=O)N[C@@H](Cc1c[nH]c2ccccc12)C(=O)NCC(=O)N[C@@H](CCCCN)C(=O)N[C@H](C(=O)N[C@@H](CCCNC(=N)N)C(=O)N[C@@H](Cc1c[nH]c2ccccc12)C(=O)NCC(=O)N[C@@H](CC(C)C)C(=O)N[C@@H](CC(C)C)C(=O)N[C@@H](CO)C(=O)N[C@@H](CC(C)C)C(=O)N[C@H](C(=O)N[C@@H](CCCCN)C(=O)NCC(=O)N[C@H](C(=O)N[C@@H](C)C(=O)NCC(=O)N[C@@H](CCC(N)=O)C(=O)N[C@@H](CCCNC(=N)N)C(=O)N[C@@H](CC(C)C)C(=O)N[C@@H](CC(C)C)C(=O)O)[C@@H](C)CC)[C@@H](C)CC)C(C)C
antibacterial activity (Gram-negative bacteria; MIC; concentration not given): active

C/C=C/c1ccc(OCc2ccccc2)c(OC)c1
antifeedant index (Spodoptera frugiperda; larvae; 100 µg/mL; reference: untreated control): 10.4%

N=C(N)NCCC[C@@H]1NC(=O)[C@H](CCCCNC(=O)CNC(=O)CNC(=O)CNC(=O)CC[C@H](NC(=O)CCOCCOCCOCCOCCNC(=O)CC[C@H](NC(=O)CN2CCN(CC(=O)O)CCN(CC(=O)O)CCN(CC(=O)O)CC2)C(=O)NCCOCCOCCOCCOCCC(=O)N[C@@H](CCC(=O)NCC(=O)NCC(=O)NCC(=O)NCCCC[C@@H]2NC(=O)[C@@H](Cc3ccccc3)NC(=O)[C@H](CC(=O)O)NC(=O)CNC(=O)[C@H](CCCNC(=N)N)NC2=O)C(=O)NCC(=O)NCC(=O)NCC(=O)NCCCC[C@@H]2NC(=O)[C@@H](Cc3ccccc3)NC(=O)[C@H](CC(=O)O)NC(=O)CNC(=O)[C@H](CCCNC(=N)N)NC2=O)C(=O)NCC(=O)NCC(=O)NCC(=O)NCCCC[C@@H]2NC(=O)[C@@H](Cc3ccccc3)NC(=O)[C@H](CC(=O)O)NC(=O)CNC(=O)[C@H](CCCNC(=N)N)NC2=O)NC(=O)[C@@H](Cc2ccccc2)NC(=O)[C@H](CC(=O)O)NC(=O)CNC1=O [indium-111 labelled]
tissue uptake (athymic nude mice, female, U-87 MG glioma xenograft, spleen; intravenous, 3 µCi, 24 h): 1.06 ± 0.19 %ID/g

N=C(N)NCCC[C@H](NC(=O)[C@H](CCCNC(=N)N)NC(=O)[C@H](CCCNC(=N)N)NC(=O)[C@H](CCC(N)=O)NC(=O)[C@H](CCCNC(=N)N)NC(=O)[C@H](CCCNC(=N)N)NC(=O)[C@H](CCCCN)NC(=O)[C@H](CCCCN)NC(=O)[C@H](CCCNC(=N)N)NC(=O)CNC(=O)[C@H](Cc1ccc(O)cc1)NC(=O)CNC(=O)CNC(=O)[C@@H]1CCCCNC(=O)CCC(=O)N[C@@H](CCCNC(=N)N)C(=O)N[C@@H](CC(N)=O)C(=O)NCC(=O)N[C@@H](CCC(N)=O)C(=O)N[C@@H](CS)C(=O)N[C@@H](CCC(N)=O)C(=O)N[C@@H](CCCNC(=N)N)C(=O)N[C@@H](CCCCN)C(=O)N1)C(N)=O
survival (Trypanosoma cruzi; H1, BALB/c mouse, Trypanosoma cruzi infection; intraperitoneal, 1.5 mg/kg/day, day 24): 80%

C=CCc1ccc(OCc2ccccc2)c(OC)c1
antifeedant index (Spodoptera frugiperda; larvae; 50 µg/mL; reference: untreated control): 28.5%

CC(=O)O[C@@H]1C[C@@H](C)O[C@H]2O[C@@H]3C[C@@H]4CC[C@@H]5[C@H](CC[C@]6(C)[C@@H](C7=CC(=O)OC7)CC[C@]56O)[C@@]4(C=O)C[C@H]3O[C@]21O
viability effect (Schistosoma mansoni; microscopic viability score; adult worms; 0.1 µM, 72 h): 26.5%

CC(C)C[C@H](NC(=O)[C@H](C)NC(=O)[C@H](CCCNC(=N)N)NC(=O)[C@H](CO)NC(=O)[C@H](Cc1ccc(O)cc1)NC(=O)[C@H](C)NC(=O)[C@H](CCCNC(=N)N)NC(=O)[C@H](CCCNC(=N)N)NC(=O)[C@H](CCCNC(=N)N)NC(=O)[C@H](CCC(N)=O)NC(=O)[C@H](CCCNC(=N)N)NC(=O)[C@H](CCCNC(=N)N)NC(=O)[C@H](CCCCN)NC(=O)[C@H](CCCCN)NC(=O)[C@@H](N)CCCNC(=N)N)C(=O)N[C@@H](CO)C(=O)N[C@@H](CCCNC(=N)N)C(=O)N[C@@H](CCC(N)=O)C(=O)N[C@@H](CC(C)C)C(=O)N[C@@H](C)C(=O)N[C@@H](CO)C(=O)O
VP1 protein level reduction (enterovirus A71; western blot; RD; 50 µM, 2 h pretreatment then 9 h): > 90%

COC(=O)C1=CO[C@@H](O)[C@@H]2C(Cn3cc(C4(O)CCCCC4)nn3)=CC[C@H]12
viability (SK-N-SH; neuroprotection, MTT; 0.075 µM, 24 h, with: 250 µM H2O2): 72.5 ± 2.5%

For quick reference, copied from above:
CC(=O)O[C@@H]1C[C@@H](C)O[C@H]2O[C@@H]3C[C@@H]4CC[C@@H]5[C@H](CC[C@]6(C)[C@@H](C7=CC(=O)OC7)CC[C@]56O)[C@@]4(C)C[C@H]3O[C@]21O
worm number (Schistosoma mansoni; mouse, chronic infection; oral, 10 mg/kg single dose, females): 7 ± 1.4

CC[C@H](C)[C@H](NC(=O)[C@H](CCCCN)NC(=O)[C@H](CCCCN)NC(=O)[C@H](CC(C)C)NC(=O)[C@H](CCCCN)NC(=O)[C@H](CCC(=O)O)NC(=O)[C@H](CCCCN)NC(=O)[C@@H](NC(=O)[C@H](CCCCN)NC(=O)[C@H](CC(N)=O)NC(=O)[C@H](CCCNC(=N)N)NC(=O)[C@H](Cc1ccccc1)NC(=O)[C@H](CCCCN)NC(=O)[C@H](CCCNC(=N)N)NC(=O)[C@H](CC(C)C)NC(=O)[C@H](CCCNC(=N)N)NC(=O)[C@H](CCCCN)NC(=O)[C@H](CCCNC(=N)N)NC(=O)[C@H](CC(C)C)NC(=O)[C@@H](N)CC(C)C)[C@@H](C)CC)C(=O)NCC(=O)N[C@@H](CCC(N)=O)C(=O)N[C@@H](CCCCN)C(=O)N[C@H](C(=O)N[C@@H](CCC(N)=O)C(=O)NCC(=O)N[C@@H](Cc1ccccc1)C(=O)N[C@H](C(=O)N1CCC[C@H]1C(=O)N[C@@H](CCCCN)C(=O)N[C@@H](CC(C)C)C(=O)N[C@H](C(=O)N1CCC[C@H]1C(=O)N[C@@H](CCCNC(=N)N)C(=O)N[C@H](C(=O)N[C@@H](CCC(=O)O)C(=O)N[C@@H](CO)C(=O)O)[C@@H](C)O)C(C)C)C(C)C)[C@@H](C)CC
lethal concentration (Streptococcus salivarius; inhibition zone; ATCC 1.2498; LB agar, overnight): 2.79 µM

CC1(C)CC[C@]2(CO)CC[C@]3(C)C(=CC[C@@H]4[C@@]5(C)CCCNC(C)(C)[C@@H]5CC[C@]43C)[C@@H]2C1
selectivity index (Human alphaherpesvirus 1; HFF, E-377; reference: CC50 over EC50): < 2
